# Published values from different studies.
# Each line is one published result; not all experiments were run side by side.
# Cell line: Vero
Compound,test,setting,scale,quantity,result
CCCCNC(=O)Nc1cc2nc(C3CCCCC3)[nH]c2cc1N(CC)CC,"cytotoxicity, Alamar Blue","3 days, 37 °C",,IC50,> 100 µg/mL
CC(C)C[C@@H](CN1CCCCC1)N(C)c1ccnc2cc(Cl)ccc12,"cell growth or viability, resazurin",72 h,,CC50,69.5 µM
CCCCCCC/C=C/C(=O)N1C(=O)/C(=C(/C)O)C(=O)C1CCC(=O)O (stereo not drawn),"cytotoxicity, CellTiter-Glo","72 h, 50% viability reduction",,IC50,49.8 µg/mL
CCC[C@H](NC(=O)CN1C(=O)SC(=Cc2ccc3c(c2)OCO3)C1=O)C(=O)OCC,"cell growth or viability, resazurin",72 h,,CC50,> 100 µM
CCN(CC)c1cc2[nH]c(C3CCCCC3)nc2cc1NC(=O)c1cnccn1,"cytotoxicity, Alamar Blue","3 days, 37 °C",,IC50,> 100 µg/mL
NCCCCCCCCCCCC(=O)NS(=O)(=O)OC[C@H]1O[C@@H](n2cnc3c(N)ncnc32)[C@H](O)[C@@H]1O,"cytotoxicity, MTT",72 h,,IC50,42 µM
CC(C)C[C@@H](CN1CCCC1)N(C)c1ccnc2cc(Cl)ccc12,"cell growth or viability, resazurin",72 h,,CC50,47 µM
Nc1ncnc2c1ncn2[C@@H]1O[C@H](COS(=O)(=O)NC(=O)CCCCCCCCCCC(=O)O)[C@@H](O)[C@H]1O,"cytotoxicity, MTT",72 h,,IC50,> 100 µM
O=c1cc(C(F)(F)F)[nH]c2cc(C(F)(F)F)cc(N[C@H]3CC[C@H](C(F)(F)F)CC3)c12,,"30 µM, 24 h",reference: SDS control,LDH release,~20%
CN(c1ccnc2cc(Cl)ccc12)[C@@H](Cc1ccccc1)CN1CCCCC1,"cell growth or viability, resazurin",72 h,,CC50,69.7 µM
CCCCCCC/C=C/C(=O)N1C(=O)/C(=C(\O)c2ccc(OCOCCOC)cc2)C(=O)C1CC(C)C (stereo not drawn),"cytotoxicity, CellTiter-Glo","72 h, 50% viability reduction",,IC50,19.8 µg/mL
CCCCOC(=O)Nc1cc2nc(C3CCCCC3)[nH]c2cc1N(CC)CC,"cytotoxicity, Alamar Blue","3 days, 37 °C",,IC50,> 100 µg/mL
CCCCCCC/C=C/C(=O)N1CC(=O)/C(=C(\C)O)C1=O,"cytotoxicity, CellTiter-Glo","72 h, 50% viability reduction",,IC50,39.9 µg/mL
O=C(C=Cc1cccc(Cl)c1)C=Cc1cccc(Cl)c1,"cell growth or viability, MTT",72 h,,CC50,164 µM
CCCCCCCCCC[C@@H](C)C(=O)NS(=O)(=O)OC[C@H]1O[C@@H](n2cnc3c(N)ncnc32)[C@H](O)[C@@H]1O,"cytotoxicity, MTT",72 h,,IC50,39.4 µM
Nc1nc2c(ncn2COCCO)c(=O)[nH]1,"cell growth or viability, MTT",24 h,,CC50,975 µM
CCCOCC(=O)Nc1cc2nc(C3CCCCC3)[nH]c2cc1N1CCCC1,"cytotoxicity, Alamar Blue","3 days, 37 °C",,IC50,> 100 µg/mL
CN(c1ccnc2cc(Cl)ccc12)[C@@H](Cc1ccccc1)CN1CCOCC1,"cell growth or viability, resazurin",72 h,,CC50,33.5 µM
COC(=O)CCCCCCCCCCC(=O)NS(=O)(=O)OC[C@H]1O[C@@H](n2cnc3c(N)ncnc32)[C@H](O)[C@@H]1O,"cytotoxicity, MTT",72 h,,IC50,14 µM
CCCCOC(=O)Nc1cc2nc(C3CCCCC3)[nH]c2cc1N(C)CCN(C)C,"cytotoxicity, Alamar Blue","3 days, 37 °C",,IC50,> 100 µg/mL
CN(c1ccnc2cc(C(F)(F)F)ccc12)[C@@H](Cc1ccccc1)CN1CCCC1,"cell growth or viability, resazurin",72 h,,CC50,39.2 µM
O=c1cc(C(F)(F)F)[nH]c2cc(C(F)(F)F)cc(Nc3ccc(F)cn3)c12,,"30 µM, 24 h",reference: SDS control,LDH release,~20%
CCN(CC)c1cc2[nH]c(C3CCCCC3)nc2cc1NC(=O)c1ccc(F)cc1F,"cytotoxicity, Alamar Blue","3 days, 37 °C",,IC50,> 100 µg/mL
CCCCCCC/C=C/C(=O)N1C(=O)/C(=C(\O)CCCC)C(=O)C1CC(C)C (stereo not drawn),"cytotoxicity, CellTiter-Glo","72 h, 50% viability reduction",,IC50,5.77 µg/mL
CCCNC(=O)Nc1cc2nc(C3CCCCC3)[nH]c2cc1N1CCCC1,"cytotoxicity, Alamar Blue","3 days, 37 °C",,IC50,> 100 µg/mL
CCN(CC)C[C@H](CC(C)C)N(C)c1ccnc2cc(C(F)(F)F)ccc12,"cell growth or viability, resazurin",72 h,,CC50,51.4 µM
CCCCCCC/C=C/C(=O)N1C(=O)/C(=C(\O)c2ccc(O)cc2)C(=O)C1CC(C)C (stereo not drawn),"cytotoxicity, CellTiter-Glo","72 h, 50% viability reduction",,IC50,57.6 µg/mL
CCCNC(=O)Nc1cc2nc(C3CCCCC3)[nH]c2cc1N(CC)CC,"cytotoxicity, Alamar Blue","3 days, 37 °C",,IC50,> 100 µg/mL
C/C(O)=C1\C(=O)C(CC(C)C)N(C(=O)C=Cc2ccccc2)C1=O (stereo not drawn),"cytotoxicity, CellTiter-Glo","72 h, 50% viability reduction",,IC50,30.4 µg/mL
CCN(CC)C[C@H](Cc1ccccc1)N(C)c1ccnc2cc(Cl)ccc12,"cell growth or viability, resazurin",72 h,,CC50,79 µM

# Some of these lines once more:
Compound,test,setting,scale,quantity,result
CCCCCCC/C=C/C(=O)N1C(=O)/C(=C(/C)O)C(=O)C1CCC(=O)O (stereo not drawn),"cytotoxicity, CellTiter-Glo","72 h, 50% viability reduction",,IC50,49.8 µg/mL
CCC[C@H](NC(=O)CN1C(=O)SC(=Cc2ccc3c(c2)OCO3)C1=O)C(=O)OCC,"cell growth or viability, resazurin",72 h,,CC50,> 100 µM
CCN(CC)c1cc2[nH]c(C3CCCCC3)nc2cc1NC(=O)c1cnccn1,"cytotoxicity, Alamar Blue","3 days, 37 °C",,IC50,> 100 µg/mL
